Measurements of several laboratories.
Lines come from different studies, so protocols differ.

SMILES | test | system | conditions | how to read | measurement | value
Cc1ccc(Sc2ccccc2N2CCNCC2)c(C)c1 | TEAE abdominal distension | healthy adult men | oral, 20 mg single dose, 10 days |  | adverse event incidence | 0%
CC[C@H](C)[C@H](NC(=O)[C@H](Cc1ccccc1)NC(=O)[C@H](CCC(=O)O)NC(=O)[C@H](CCCCNC(=O)COCCOCCNC(=O)COCCOCCNC(=O)CC[C@H](NC(=O)CCCCCCCCCCCCCCCCC(=O)O)C(=O)O)NC(=O)[C@H](C)NC(=O)[C@H](C)NC(=O)[C@H](CCC(N)=O)NC(=O)CNC(=O)[C@H](CCC(=O)O)NC(=O)[C@H](CC(C)C)NC(=O)[C@H](Cc1ccc(O)cc1)NC(=O)[C@H](CO)NC(=O)[C@H](CO)NC(=O)[C@@H](NC(=O)[C@H](CC(=O)O)NC(=O)[C@H](CO)NC(=O)[C@@H](NC(=O)[C@H](Cc1ccccc1)NC(=O)[C@@H](NC(=O)CNC(=O)[C@H](CCC(=O)O)NC(=O)C(C)(C)NC(=O)[C@@H](N)Cc1cnc[nH]1)[C@@H](C)O)[C@@H](C)O)C(C)C)C(=O)N[C@@H](C)C(=O)N[C@@H](Cc1c[nH]c2ccccc12)C(=O)N[C@@H](CC(C)C)C(=O)N[C@H](C(=O)N[C@@H](CCCNC(=N)N)C(=O)NCC(=O)N[C@@H](CCCNC(=N)N)C(=O)NCC(=O)O)C(C)C | refers to: Nausea | type 2 diabetes patients | dose not given | relative to: subjects | adverse event incidence | 40%
O=C1CCc2ccc(OCCCCN3CCN(c4cccc(Cl)c4Cl)CC3)cc2N1 | refers to: Sedation | patients, CYP2D6 ultrarapid metabolizers | dose not given, long-acting oral or depot |  | adverse event incidence | 21%
Cc1c(Cl)c(C)[n+]([O-])c(Cl)c1-c1noc(-c2cc(O)c(O)c([N+](=O)[O-])c2)n1 | refers to: Bloating | healthy Caucasian subjects | oral, 50 mg, 20 days |  | adverse drug reaction incidence | 0%
FC(F)(F)c1ccc(CNc2ccc(Cc3c[nH]c4ncc(Cl)cc34)cn2)cn1 | refers to: periorbital oedema | patients with advanced solid tumours | oral, dose not given, phase Ib, related to compound |  | adverse events, all grades | 13%
Cc1c(C(=O)O)ccc2c3n(nc12)[C@@H]1[C@H](C3)N(CC2CC2)[C@@]2(C(=O)Nc3cc(Cl)ccc32)[C@H]1c1cccc(Cl)c1F | phase Ia trial, refers to: Alopecia | cancer patients | oral, dose not given |  | adverse event incidence | 24%
Cc1cc(Nc2ccc(S(F)(F)(F)(F)F)cc2)n2nc(C(C)(F)F)nc2n1 |  | Plasmodium vivax malaria patients | oral, 400 mg |  | adverse event abdominal pain | 20%
CC(=O)O[C@H]1C(=O)[C@@]2(C)[C@H]([C@H](OC(=O)c3ccccc3)[C@]3(O)C[C@H](OC(=O)[C@H](O)[C@@H](NC(=O)c4ccccc4)c4ccccc4)C(C)=C1C3(C)C)[C@]1(OC(C)=O)CO[C@@H]1C[C@@H]2O |  | patients with advanced solid tumours | intravenous, dose not given, phase Ib, all relationships |  | adverse events, any | 100%

For quick reference, copied from above:
SMILES | test | system | conditions | how to read | measurement | value
FC(F)(F)c1ccc(CNc2ccc(Cc3c[nH]c4ncc(Cl)cc34)cn2)cn1 | refers to: periorbital oedema | patients with advanced solid tumours | oral, dose not given, phase Ib, related to compound |  | adverse events, all grades | 13%
